# Measured values of several laboratories.
# Protocols differ between the studies behind these lines.
# Observed: cell growth or viability
SMILES,cell line,assay,setting,quantity,value
CC(=NNC(=O)c1ccc(N)cc1)c1ccc(Nc2nnc(-c3ccc(Cl)cc3)c3ccccc23)cc1,MCF7,MTT,"0.625 µM, 24 h",viability,44%
CNc1ncc2c(/C=C/C(=O)N3CCC(CCO)CC3)nn(CC3CCCC3)c2n1,FLO-1,resazurin,5 days,EC50,24.1 µM
Cc1ccc(C(=O)c2cc(O)c(O)c([N+](=O)[O-])c2)cc1,MB002,,7 days,IC50,0.291 µM
CCc1c(C)c2ccc(OCC(=O)NNC(=S)Nc3ccccc3)c(C)c2oc1=O,PC-3,MTT,250 µg/mL,viability,2.75%
CC(=NNC(=O)c1ccccc1O)c1ccc(Nc2nnc(-c3ccc(Cl)cc3)c3ccccc23)cc1,MCF7,MTT,1.25 µM,cell death,9.65%
Cc1cc(C)n(C(=S)[S][Au][PH](CCCCCC[PH]([Au][S]C(=S)n2nc(C)cc2C)(c2ccccc2)c2ccccc2)(c2ccccc2)c2ccccc2)n1,SR,,,GI50,0.0341 µM
CNc1ncc2c(/C=C/C(=O)N3CCC(OC)CC3)nn(Cc3ccccc3C(F)(F)F)c2n1,FLO-1,resazurin,5 days,EC50,5.16 µM
C[C@@H]1CC[C@@H]([C@](C)(O)Cn2cnc3ccccc32)[C@H](OCc2ccccc2)C1,A2780,MTT,"10 µM, 72 h",inhibition,35.2%
CC(=NNC(=O)c1ccccc1Br)c1ccc(Nc2nnc(-c3ccc(Cl)cc3)c3ccccc23)cc1,MCF7,MTT,1.25 µM,cell death,68.7%
CCNC(=S)NNC(=O)COc1ccc2c(C)c(CC)c(=O)oc2c1C,PC-3,MTT,1000 µg/mL,viability,2.75%
CNC(=O)c1cc(Oc2ccc(NC(=O)Nc3ccc(Cl)c(C(F)(F)F)c3)cc2)ccn1,WM 266-4,MTT,"0.4 µM, 48 h",viability,67.6%
COc1ccc(C=C2SC(=N)N(c3ccccc3OC)C2=O)cc1,HEK293,,,IC50,> 10 µM
CNCc1ccc(-c2nn(Cc3ccccc3)c3ccccc23)o1,RBE,ATP luminescence,"46 µM, 72 h",inhibition,84%
CC(=NNC(=S)Nc1ccccc1)c1ccc(Nc2nnc(-c3ccc(Cl)cc3)c3ccccc23)cc1,MCF7,MTT,"5 µM, 24 h",viability,7.22%
Cc1n[nH]c2ccc3nc(-c4ccc(C(=O)NCCN(C)C)cc4F)c4c(c3c12)CCCCC4,ML-2,,72 h,GI50,0.698 µM
Cc1nc(C)c(-c2ccc(Oc3ccc(OC(F)(F)F)cc3)cc2)c(O)c1I,HEK293,,,IC50,> 10 µM
CCc1c(C)c2ccc(OCC=Cc3ccccc3)c(C)c2oc1=O,PC-3,MTT,1000 µg/mL,viability,6.48%
CC(=O)N1CCC(Nc2cc(C(=O)NC[C@H](O)CN3CCc4ccccc4C3)ncn2)CC1,MB002,,7 days,IC50,0.0984 µM
O=C(Nc1ccc(Oc2nnc(-c3ccc(Cl)cc3)c3ccccc23)cc1)c1cccc([N+](=O)[O-])c1,MCF7,MTT,0.625 µM,cell death,90.2%
CCN(Cc1ccccn1)c1ccc(CO)c(Cl)c1,RBE,ATP luminescence,"46 µM, 72 h",inhibition,52%
CC(=NNC(=O)c1ccccc1Cl)c1ccc(Nc2nnc(-c3ccc(Cl)cc3)c3ccccc23)cc1,MCF7,MTT,"0.625 µM, 24 h",viability,99.8%
O=C(c1cc(-c2ccco2)[nH]n1)N1CCN(S(=O)(=O)c2ccc(Cl)cc2)CC1,HEK293,,,IC50,> 10 µM
S=C(Nc1ccccc1)Nc1ccc(Oc2nnc(-c3ccc(Cl)cc3)c3ccccc23)cc1,MCF7,MTT,"5 µM, 24 h",viability,2.7%
C[C@@H]1CC[C@@H]([C@@](O)(CNCc2ccccc2)COCc2ccc(F)cc2)[C@H](OCc2ccc(F)cc2)C1,A2780,MTT,"10 µM, 72 h",inhibition,95.6%

# Repeated from above:
SMILES,cell line,assay,setting,quantity,value
CCc1c(C)c2ccc(OCC=Cc3ccccc3)c(C)c2oc1=O,PC-3,MTT,1000 µg/mL,viability,6.48%
CC(=O)N1CCC(Nc2cc(C(=O)NC[C@H](O)CN3CCc4ccccc4C3)ncn2)CC1,MB002,,7 days,IC50,0.0984 µM
O=C(Nc1ccc(Oc2nnc(-c3ccc(Cl)cc3)c3ccccc23)cc1)c1cccc([N+](=O)[O-])c1,MCF7,MTT,0.625 µM,cell death,90.2%
